Measurements gathered from unrelated publications.
Lines come from different studies, so protocols differ. ± gives the spread as reported.
Sequence of UniProt P11229 (whole entry, looked up): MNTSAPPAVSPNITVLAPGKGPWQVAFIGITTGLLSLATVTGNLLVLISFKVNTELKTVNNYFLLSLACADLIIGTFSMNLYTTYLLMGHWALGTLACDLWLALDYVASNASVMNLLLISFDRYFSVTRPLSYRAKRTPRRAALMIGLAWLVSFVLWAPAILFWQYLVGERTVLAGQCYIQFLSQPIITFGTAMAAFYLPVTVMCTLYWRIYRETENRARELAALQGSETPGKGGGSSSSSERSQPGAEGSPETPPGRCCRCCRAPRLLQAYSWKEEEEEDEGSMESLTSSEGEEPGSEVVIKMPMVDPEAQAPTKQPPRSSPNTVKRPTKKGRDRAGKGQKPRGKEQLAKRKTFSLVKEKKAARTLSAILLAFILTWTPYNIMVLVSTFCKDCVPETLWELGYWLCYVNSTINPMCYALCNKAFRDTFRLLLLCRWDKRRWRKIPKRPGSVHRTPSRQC
Sequence of UniProt P20309 (whole entry, looked up): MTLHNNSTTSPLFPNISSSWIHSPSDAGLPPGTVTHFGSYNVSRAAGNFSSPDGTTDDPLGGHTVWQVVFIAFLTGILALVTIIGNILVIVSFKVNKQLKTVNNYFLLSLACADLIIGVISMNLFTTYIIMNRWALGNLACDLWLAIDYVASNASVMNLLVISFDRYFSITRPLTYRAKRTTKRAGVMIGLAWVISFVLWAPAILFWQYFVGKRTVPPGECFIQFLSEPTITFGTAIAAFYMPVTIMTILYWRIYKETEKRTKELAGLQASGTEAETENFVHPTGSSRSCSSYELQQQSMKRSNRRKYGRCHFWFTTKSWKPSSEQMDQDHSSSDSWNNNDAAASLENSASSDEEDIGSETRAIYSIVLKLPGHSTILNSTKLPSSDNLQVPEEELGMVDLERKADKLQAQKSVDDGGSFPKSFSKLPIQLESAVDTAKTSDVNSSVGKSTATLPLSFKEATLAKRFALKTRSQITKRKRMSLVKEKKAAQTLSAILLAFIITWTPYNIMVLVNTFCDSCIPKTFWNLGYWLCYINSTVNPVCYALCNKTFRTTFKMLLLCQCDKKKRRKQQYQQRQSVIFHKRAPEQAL

| SMILES | tested on | assay | system | conditions | scale | endpoint | value |
| --- | --- | --- | --- | --- | --- | --- | --- |
| CCOC(=O)CNC(=O)CN1C(=O)S/C(=C\c2ccc(C)cc2)C1=O | Leishmania major | parasite growth, resazurin |  | promastigote |  | IC50 | > 100 µM |
| O=Cc1c(O)ccc2ccccc12 | HUVEC | RNA sequencing, refers to: CD34 |  | 75 µM, 24 h | relative to: DMSO | log2 fold change | -3.76 |
| CCOC(=O)C(NC(=O)CN1C(=O)/C(=C/c2ccc([N+](=O)[O-])cc2)SC1=S)C(C)C (stereo not drawn) | Leishmania major | parasite growth, resazurin |  | promastigote |  | IC50 | > 100 µM |
| Cc1ncc([N+](=O)[O-])n1CCOCc1nnc(SCC(=O)c2ccc(O)cc2)o1 | Giardia duodenalis | parasite growth |  |  |  | IC50 | 2.26 µM |
| CC[C@H]1[C@@H](O)[C@@H]2[C@H](CC[C@]3(C)[C@@H]([C@H](C)CCOS(=O)(=O)[O-])CC[C@@H]23)[C@@]2(C)CC[C@@H](O)C[C@@H]12.[Na+] |  |  | ob/ob NASH mice, plasma | oral, 3 mg/kg once daily, 8 wk |  | plasma ALT | 478 ± 33.9 U/L |
| CCCC[C@H](NC(=O)COCCOCCNC(=O)CN1CCN(CC(=O)O)CCN(CC(=O)O)CC1)C(=O)N[C@H]1CC(=O)NCCCC[C@@H](C(N)=O)NC(=O)[C@H](Cc2c[nH]c3ccccc23)NC(=O)[C@H](CCCNC(=N)N)NC(=O)[C@@H](Cc2ccccc2)NC(=O)[C@H](Cc2c[nH]cn2)NC1=O [copper-64 labelled] |  |  | C57 mice, skin | intravenous, 0.37 MBq, 0.5 h |  | tissue uptake | 4.37 ± 1.12 %ID/g |
| CCC(NC(=O)CN1C(=O)N/C(=C\c2ccc(C)cc2)C1=O)C(=O)OC (stereo not drawn) | Leishmania major | parasite growth |  | 72 h, intracellular, amastigote |  | IC50 | 7.45 µM |
| N=C(N)NCCC[C@@H]1NC(=O)[C@H](CCCCNC(=O)CC[C@H](NC(=O)CC[C@H](NC(=O)CN2CCN(CC(=O)O)CCN(CC(=O)O)CCN(CC(=O)O)CC2)C(=O)N[C@@H](CCC(=O)NCCCC[C@@H]2NC(=O)[C@@H](Cc3ccccc3)NC(=O)[C@H](CC(=O)O)NC(=O)CNC(=O)[C@H](CCCNC(=N)N)NC2=O)C(=O)NCCCC[C@@H]2NC(=O)[C@@H](Cc3ccccc3)NC(=O)[C@H](CC(=O)O)NC(=O)CNC(=O)[C@H](CCCNC(=N)N)NC2=O)C(=O)NCCCC[C@@H]2NC(=O)[C@@H](Cc3ccccc3)NC(=O)[C@H](CC(=O)O)NC(=O)CNC(=O)[C@H](CCCNC(=N)N)NC2=O)NC(=O)[C@@H](Cc2ccccc2)NC(=O)[C@H](CC(=O)O)NC(=O)CNC1=O [indium-111 labelled] |  |  | female athymic nu/nu mice, muscle | intravenous, 111 kBq, 24 h |  | tissue uptake | 0.78 ± 0.19 %ID/g |
| CCCC[C@H](NC(=O)CNC(=O)CNC(=O)CN1CCN(CC(=O)O)CCN(CC(=O)O)CCN(CC(=O)O)CC1)C(=O)N[C@H]1CC(=O)NCCCC[C@@H](C(N)=O)NC(=O)[C@H](Cc2c[nH]c3ccccc23)NC(=O)[C@H](CCCNC(=N)N)NC(=O)[C@@H](Cc2ccccc2)NC(=O)[C@H](Cc2c[nH]cn2)NC1=O [lutetium-177 labelled] |  |  | C57 mouse, female, skin | intravenous, 0.037 MBq, 24 h |  | tissue uptake | 0.33 ± 0.06 %ID/g |
| O=C1Nc2ccc(Cl)cc2C1=Cc1ccc(-c2cccc(C(=O)NCC3CCNCC3)c2)o1 (mixture of isomers) | Trichuris muris | adult worm motility |  | 48 h |  | IC50 | 57.6 µM |
| Cc1cc(N2CCC(C#N)(C3(C)CC3)C2=O)cc(C(=O)NCc2cc(F)cc(-c3cnn(C)c3)c2)n1 (racemic) | Plasmodium falciparum | parasite growth, [3H]hypoxanthine incorporation | Dd2 | 72 h |  | IC50 | 0.024 µM |
| COC(=O)c1cccc(NC(=O)c2[nH]c3cc(C)sc3c2CN2CCOCC2)c1 | Giardia duodenalis | parasite growth |  | 48 h |  | IC50 | > 10 µM |
| O=C1CC(c2ccc(O)cc2)Oc2cc(O)cc([O][Ga+][O]c3cc(O)cc4c3C(=O)CC(c3ccc(O)cc3)O4)c21 (stereo not drawn) | Pseudomonas aeruginosa | bacterial viability |  |  |  | IC50 | 0.65 µg/mL |
| Cc1cc2[nH]c(C(=O)Nc3cc(F)ccc3Cl)c(CN(C)C)c2s1 | Giardia duodenalis | parasite growth |  |  |  | IC50 | ≤ 10 µM |
| CCOC(=O)C(C)NC(=O)CN1C(=O)S/C(=C\c2ccc(F)cc2)C1=O (stereo not drawn) | Leishmania major | parasite growth, resazurin |  | promastigote |  | IC50 | > 100 µM |
| Cc1cc2[nH]c(C(=O)NCCN(C)C)c(CN3CCCCC3)c2s1 | Giardia duodenalis | parasite growth |  | 48 h |  | IC50 | > 10 µM |
| Cc1ncc([N+](=O)[O-])n1CCOCc1nnc(SCC(=O)c2ccc(Cl)cc2)o1 | Giardia duodenalis | parasite growth |  |  |  | IC50 | 2.15 µM |
| Cc1cc2[nH]c(C(=O)NC3CCCC3)c(CN3CCCCC3)c2s1 | Giardia duodenalis | parasite growth |  | 48 h |  | IC50 | > 10 µM |
| [64Cu+2].c1ccc(CNCc2ccc(CN3CCCN4CCNCCCN(CC4)CC3)cc2)nc1 | CXCR4 |  | NOD/SCID mouse, U87 and U87-stb-CXCR4 xenografts, muscle | iv, 90 min, ex vivo |  | tissue uptake | 0.35 ± 0.05 %ID/g |
| CCOC(=O)C(NC(=O)CN1C(=O)/C(=C/c2ccc3c(c2)OCO3)SC1=S)C(C)C (stereo not drawn) | Leishmania major | parasite growth |  | 72 h, intracellular, amastigote |  | IC50 | > 10 µM |
| CN1CCC=C(c2nsnc2OCCCCCN2CCN(CCCCCOc3nsnc3C3=CCCN(C)C3)CC2)C1 | CHRM1 (Homo sapiens, UniProt P11229) | ligand displacement, radioligand |  |  |  | Ki | 0.0437 µM |
| CC(=O)OC[C@H]1O[C@@H](NC(=O)NC(=O)[C@@H](C)Cc2ccc(C(C)C)cc2)[C@H](OC(C)=O)[C@@H](OC(C)=O)[C@@H]1OC(C)=O | reovirus 1 | viral cytopathicity | Vero |  |  | IC50 | > 100 µM |
| CCC(=O)NCc1cc(C(=O)NCCN2CCN(CCCCC3CCN(CC(=O)N4c5ccccc5NC(=O)c5ccccc54)CC3)CC2)cc(C(=O)NCCN2CCN(CCCCC3CCN(CC(=O)N4c5ccccc5NC(=O)c5ccccc54)CC3)CC2)c1 | CHRM3 (Homo sapiens, UniProt P20309) | ligand displacement, radioligand |  |  |  | Ki | 0.0129 µM |
| COc1ccc(C(=O)CSc2nnc(COCCn3c([N+](=O)[O-])cnc3C)o2)cc1F | Giardia duodenalis | parasite growth |  |  |  | IC50 | 0.88 µM |

Repeated from above:
| SMILES | tested on | assay | system | conditions | scale | endpoint | value |
| --- | --- | --- | --- | --- | --- | --- | --- |
| Cc1cc2[nH]c(C(=O)Nc3cc(F)ccc3Cl)c(CN(C)C)c2s1 | Giardia duodenalis | parasite growth |  |  |  | IC50 | ≤ 10 µM |
| CCOC(=O)C(C)NC(=O)CN1C(=O)S/C(=C\c2ccc(F)cc2)C1=O (stereo not drawn) | Leishmania major | parasite growth, resazurin |  | promastigote |  | IC50 | > 100 µM |
| Cc1cc2[nH]c(C(=O)NCCN(C)C)c(CN3CCCCC3)c2s1 | Giardia duodenalis | parasite growth |  | 48 h |  | IC50 | > 10 µM |
